# Experimental data gathered from unrelated publications.
# Every numbered part comes from another study and shows a few of its results, in no order. Positions count from the first letter of the parent shown.

# Block 1
# Target: Sal-like protein 4, full length isoform B (SALL4, Homo sapiens, UniProt Q9UJQ4-2, residues 1-616)
# Technique: universal PBM
# Form: double-stranded DNA, one strand shown
# Matrix: in vitro
# Tested at: not given
# Notes: 8-mer, flanks averaged, mean of replicates
# Direction: higher = stronger binding
# Target sequence (chain): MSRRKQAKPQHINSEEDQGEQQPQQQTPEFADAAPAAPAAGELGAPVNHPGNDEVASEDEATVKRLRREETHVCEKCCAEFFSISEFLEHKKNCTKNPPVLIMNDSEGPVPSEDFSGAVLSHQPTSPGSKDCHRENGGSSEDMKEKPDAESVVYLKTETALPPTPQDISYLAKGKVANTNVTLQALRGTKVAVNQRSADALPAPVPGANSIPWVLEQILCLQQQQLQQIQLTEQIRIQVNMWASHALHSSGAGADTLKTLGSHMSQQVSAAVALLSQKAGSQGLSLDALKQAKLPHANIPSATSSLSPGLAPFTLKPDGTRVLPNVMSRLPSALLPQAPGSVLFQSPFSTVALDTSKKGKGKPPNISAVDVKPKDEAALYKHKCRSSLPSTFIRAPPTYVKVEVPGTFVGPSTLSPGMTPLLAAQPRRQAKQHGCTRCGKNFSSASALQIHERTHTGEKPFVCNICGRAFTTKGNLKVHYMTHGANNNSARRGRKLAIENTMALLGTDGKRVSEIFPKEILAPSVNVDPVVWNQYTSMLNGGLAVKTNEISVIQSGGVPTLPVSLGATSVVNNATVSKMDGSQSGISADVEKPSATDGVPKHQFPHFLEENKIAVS
Sequence,E-score
AAATGGTA,0.276
AGCCACTA,0.022
GGGGCGAC,-0.332
ATGTAGAG,0.128
AGGATAGC,-0.0182
GTCGCGAC,-0.0852
CCTATAAG,-0.0503
GACAATGC,0.0825
CATTGGCC,-0.175
CAACGGAG,-0.241
GGAAAGCC,-0.226
GTCACGAC,0.093
ACCATTGA,0.116
ATACACGG,0.2
GAGGGATC,-0.23
GTACGTTA,0.241
GGCCCCTA,-0.331
CGGCGTTC,-0.324
CGTATGTC,0.0273
ACTCGTAA,0.182
CCATCAGA,-0.0972

# Block 2
# Target: Histone acetyltransferase KAT6A, winged helix 1, GST fusion (KAT6A, Homo sapiens, UniProt Q92794, residues 1-85)
# Technique: protein binding microarray
# Form: double-stranded DNA, one strand shown
# Matrix: in vitro
# Tested at: not given
# Notes: 8-mer, flanks averaged, mean of 2 arrays, mostly near background
# Relative to: not given
# Direction: higher = stronger binding
# Target sequence (chain): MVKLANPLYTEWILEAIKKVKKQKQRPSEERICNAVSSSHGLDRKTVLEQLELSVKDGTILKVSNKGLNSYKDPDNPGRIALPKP
Sequence,E-score
ACCAAACG,0.0549
CTAAAACC,0.0439
AGCTTCGA,-0.169
CGACGAAA,-0.252
CGGTGAGC,0.143
CACCACCA,-0.279
AAGTTGTA,-0.144
AGAATTTA,-0.138
AGATCTTG,-0.259
CGTGACAC,0.0803
CTGTCAAA,-0.0798
CGGTTATC,0.169
AGCATAGA,-0.0814
GCTCCTGA,0.136
CCGATCGA,0.112
GCATGGCA,0.0976
ACCGTCAT,0.205
ACCCCTTG,-0.187
CTCGGACA,0.0385
GAGTGTCC,-0.146
CCGTCCCG,0.406
ACCAAAAA,-0.0923
ATATTATC,0.0587
CAAGTAGA,-0.123
CGCACGCC,0.299

# Block 3
# Target: RNA binding protein fox-1 homolog 2, RRM domain, GST-SBP tag (RBFOX2, Homo sapiens, UniProt O43251-10, residues 100-194)
# Technique: RNA Bind-n-Seq
# Form: RNA
# Matrix: in vitro
# Tested at: 365 nM
# Notes: natural RNA segment, single round, ends assumed
# Relative to: no-protein control
# Direction: higher = stronger binding
# Constant ends, left off below: GGGAGUUCUACAGUCCGACGAUC … UGGAAUUCUCGGGUGCCAA
# Target sequence (chain): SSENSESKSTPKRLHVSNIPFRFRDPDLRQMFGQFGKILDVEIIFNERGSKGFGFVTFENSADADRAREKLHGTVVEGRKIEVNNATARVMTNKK
Sequence,RBNS enrichment (R)
AAUGUCACUAUUAAUUUAUCAUACCAUUUCCAAAAAGGGCUUUGUGCUUUUCACAUAAAAUUGAGACAGUGUAUAUUUAAUCUAAUUUAAAUUUUAAAGAGAUACUGGUA,0.477
UGAUUUCUGUUUUGUCUACAGACUCUUAACAAACCUCAGGAAAACUGUCCCUCUACCAGUUACCUUAGUUGGGGAGCCAGUGCGUGUCACACCAGAUAAGCGGUUGUGUG,0.294
GAUAGGAUUUAGUUGUGUUUAGGACAUUGCAGAUCUUCUAGAAGUUUCCCCUCAAUCAGGUUGAUAAGACCUUCUAAGCUUCUGCCAAGCAUCUUCAGUGCUCACAAUCA,0.623
CACCACCAGACACGUGCCCACAUCUGUCCCACUCUGGUCCUCGGGGGCCACUCCACCCUUAGGGAGCACAUGAAGAAGCUCCCUAAGAAGUUCUGCUCCUUAGCCAUCCU,0.452
UGAGUCUUUGAGACUAAAUUCAAUCACCACCAGGUAUCAAAUCAACUUUUAUGCAGCAAAUAUAUGAUUCUAGUGUCUGACUUUUGUUAAAUUCAGUAAUGCAGUUUUUA,0.788
GUAGGUUUUGCAGUUAAUGGCCUGAAUGCUAGAUAUCAGAUCACCUGUUUCGCUGUGGGAACAGGAGAGAAGGUGAUGAACAAACCACCAUCCGCUGCAUGGUCACAGUA,2.23
CUUUUGUCAGGAUAACAUCAUAUAGCAUCUUGUUUGUUUUUCCUAAUCUCUAUGUACAUAUCUAUCUACCUGUAACCGUAGAUAGGUAUCUAGAUAGAUACCAAGCUUUU,1.22
CUGCCAUGGGGCUGCUUCCCUGUCCCUUCCCUCCCCUUUGCUGGCCUACUCUGGCAUAAUUCAAGUGUCUUCUUGCCUUGGGGAUCCUUAGUGGCAUCAAAUGGCAACAU,0.652
UAAGAGCUUUAAAACUAUUUUUUUACAUGCCUUAUAUACAUUCCACUAAUGACAUUCUUAUAAUAAUAUUAAACACAUGAUCUUGGUACUAACAUACUCACUGUGAACCC,0.462
AGAUUUUUAAAAUUUCAAAUCCUAAAUCACUUCUUGUAGGAGGGUUUUCAUUAACUGCAGUAUAUACAGUUCACUACAUAUGGGUUGUUUGAGUUUUUUGUGUGCUGUAU,1.76
CUUCUGAGUUCCUGCUGAUGUUACAAGGGACCACACUUUUGAGAAUCUGUGCUUUAAGCUAAGGAAAUAUUGCCUGGUGGGUUGGCUGCCUGGUAUUGGGCAUGGAAAUU,1.52
AGCUCAGCUCGAGUCUUCAGGGCUGGGCUCCUAGGCUGCCCAUCCUACUUCUACCCUCACUGGCCUCCAGUGGGAUUCACUCCUGCCCUGCCCCCACCUUCCCAGUCCCA,0.359

# Block 4
# Target: CCNA2, cyclin fold, Cln2 fusion (human)
# Technique: yeast growth competition, sequencing
# Matrix: yeast
# Notes: strong parent motif
# Relative to: not given
# Direction: higher = stronger binding
# Starting sequence: CDC6 docking peptide (human); TLKGRRLVFDNQL
Substitution,normalised enrichment score
N11W,1.94
D10L,1.29
G4R,2.96
L13W,3.75
L7M,1.05
Q12D,3.75
N11F,3.36
L2S,1.88
N11M,2.25
L13Q,3.15
R5I,0.483
D10A,1.11
R5H,0.214
Q12H,3.24
L2Q,2.34
Q12A,3.12
L13V,3.62
D10M,1.84
D10I,2.34
L7A,0.378
Q12F,3.02
L13C,2.97
G4K,2.21
R5N,0.55
L2K,4.21

# Block 5
# Target: Prothrombin, mature alpha-thrombin (F2, Homo sapiens, UniProt P00734)
# Technique: aptamer microarray, sandwich
# Form: DNA with 2'F-ANA
# Matrix: in vitro
# Tested at: 200 nM
# Notes: whole 15-mer aptamer, many near background
# Added: Cy3 exosite-II aptamer, 400 nM
# Direction: higher = stronger binding
# Sequence: GGTTGGTGTGGTTGG
Modification,mean fluorescence intensity [a.u.]
2'F-ANA at 2 4 5 8 10 11 15,44.3
2'F-ANA at 1 3 4 8 10,85.9
2'F-ANA at 2 5 7 8 14 15,57.2
2'F-ANA at 1 3 4 5 6 10 14 15,48.7
2'F-ANA at 1 2 3 4 6 7 10 11 14 15,50.9
2'F-ANA at 1 2 3 4 5 8 11 14 15,43.2
2'F-ANA at 1 2 8 11 13 15,143
2'F-ANA at 1 2 3 4 5 6 9 10 11 15,52.8
2'F-ANA at 4 6 7 10 12,121
2'F-ANA at 1 2 5 7 15,56.6
2'F-ANA at 4 7 10 11 12 14 15,64.2
2'F-ANA at 1 2 5 8 11 12 13 14,46.5
2'F-ANA at 1 2 6 7 11 13 14,48.3
2'F-ANA at 1 2 3 4 9 11 12 14 15,67.6
2'F-ANA at 1 2 4 6 8 10 14,45.1
2'F-ANA at 1 2 3 4 6 7 9 10 11 13 15,107
2'F-ANA at 2 4 5 7 9 10 11,48.9
2'F-ANA at 3 8 10 12 13 14,430
2'F-ANA at 2 4 6 8 11 12,489
2'F-ANA at 1 3 7 8 9 11 12 14 15,118
2'F-ANA at 3 4 5 6 7 8 9 10 11 13 14 15,169
2'F-ANA at 1 4 5 6 9 14,56.4
2'F-ANA at 1 3 4 7 8 9 12 14 15,89.6
2'F-ANA at 1 7 8 11 14 15,64
2'F-ANA at 1 2 6 7 8 9 10 11 13 14 15,51.8

# Block 6
# Target: RING finger protein unkempt homolog, zinc fingers 1-6, GST-SBP tag (UNK, Homo sapiens, UniProt Q9C0B0, residues 30-357)
# Technique: RNA Bind-n-Seq
# Form: RNA
# Matrix: in vitro
# Tested at: not given
# Notes: RNA with constant flanks, ends assumed
# Relative to: input RNA pool
# Direction: higher = stronger binding
# Constant ends, left off below: GGGAGUUCUACAGUCCGACGAUC … CAACAGAGGAUUGAGCAUCA
# Target sequence (chain): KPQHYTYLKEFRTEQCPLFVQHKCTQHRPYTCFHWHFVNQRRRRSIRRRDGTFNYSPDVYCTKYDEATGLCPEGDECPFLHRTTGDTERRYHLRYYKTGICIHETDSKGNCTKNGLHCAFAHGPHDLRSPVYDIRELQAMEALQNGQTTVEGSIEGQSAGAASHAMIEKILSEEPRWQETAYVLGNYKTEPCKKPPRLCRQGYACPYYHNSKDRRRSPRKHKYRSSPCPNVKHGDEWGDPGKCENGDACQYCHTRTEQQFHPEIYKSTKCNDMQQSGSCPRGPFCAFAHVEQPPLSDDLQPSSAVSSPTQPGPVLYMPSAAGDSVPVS
Sequence,bound/input enrichment [ratio]
AUAUAUAUACACACACACAUAUAUAUAUUUAGAAACGUGAGUGUUAAAGAUAGAAUUUGUUUCCGGACAAAUUUUAAGAAAAUGUGGGAAUACCAAAUGUCCUUUAUAAGAAAAAUAAAU,0.716
CGUAGAGGGACAGAGAGCUUAGAUCACCUUGCUGGUCUUUCUCAUUAUUACCAUGCUGAUACCCGCUACAGACAUUUUCCAAAAUCUGAGAAGUAUAGCAUCAGUAGACUCACACUUGAA,0.163
GAAUACCAAAGUGAAGGACUUUGUGUCAUUCAGUAAAAUUUUCUUUUUUCAUAUCCUAAGCCGCUCCCAUUCCCUCACCUUUUCAAUCAGAAUUAACAAAUUCAAGCCUUCAGUAAAGUA,0.354
GUCACUUGUGUUGCUGCCUCUCCUCACAAGGACUCUGUGUUUCUUUCAUGCAGCGAGGACAACCGAAUUUUACUCUGGGAUACCCGCUGUCCCAAGCCAGCAUCACAGAUUGGCUGCAGU,0.513
CAGAUGAGGAAACUGAGGCCCAGAGAAGCAGAAAGGACUUCUCUGAACCUCACUGUAAAUCCGCAUUAAAUGCAGCCGUCCUACUACUGGCAUUUUACCUACAAAAAUUUUGCUAGGGAU,0.129
AUUUGUUUCUUAUAAUAGCCCCUGGAGGAAUUGCUACACCCCCAGUGUAUGGUCAGCUUCCCGCUUUAUAUUUGCUCCAUAAUGACAUGAAUAAUGCAAGAUAUCUUUGGAAAAGAAUAC,0.381
CAAUUACUGGAAAAUAAAAGGAGUUCAUGUAGUUUUUGUCCAGGCUUGAGUCACCAUGAGCCGCCGUUUAGGAAAAGAAAAAGACUCUAAAGAAAAAGAUCCCAAAGUACCAUCAGCCAA,0.561
GUCUCCAUUUUGUCAGCCAUGGAGCUCAUUUGGAACCUGUGUGAGAUUCUCUUUAUUGAAGCCGCACCAGCUGGCCCUCUCCUCCUUCACCUUCUUGACUGGGUCCGACUGCACGUGUGC,0.2
UACACAAGGAAAGUUGACUACUUCCCAUUCCUGGAUUUAGGAGAGGAACUCAGAAGGCCCUCCGGAUGAUCUGUUUGUAUGGGAAGAAGUUAGAGACAAUGGAUUUUAUAAUUCCAGAUU,0.0967
CCUGUUCUCAUUUCAGCUAUGAAGAUUUUUGUUACAACCAAAAACUCAAAAAACCAAGGAACCGAAGAAGCUUUGAAAAAUCGAAAUUUUACUGUAGAAAAGAUGAGUGCUGAAAUUAAC,0.263
UCCCACUCCUCGGCAGACAUCAACUCCAGUCUUCCUCCGAUGUCCACGUUCCAUCGCCGUGGCACAAACCAUUACAGCACCUCUUCCUGCACACCCCCUGCCAACGGAACAGACAGUAUA,0.417

# Some of these lines once more (block 1):
Sequence,E-score
CAACGGAG,-0.241
GGAAAGCC,-0.226
GTCACGAC,0.093
ACCATTGA,0.116
ATACACGG,0.2
GAGGGATC,-0.23
GTACGTTA,0.241
GGCCCCTA,-0.331
CGGCGTTC,-0.324
CGTATGTC,0.0273
ACTCGTAA,0.182
